Measurements of several laboratories.
Each numbered part is a random draw from the data of one study; scales do not carry over between parts. Substitutions count along the parent as printed.

Block 1
Change: R32N
Target: ABI1, truncated, D143A, DHFR fusion (Arabidopsis thaliana)
Method: DHFR PCA, deep sequencing
Sample: yeast
Setting: methotrexate growth selection, single substitutions
Baseline: wild-type fitted maximum
Direction: higher = stronger binding
Parent: PYL1, truncated, DHFR fusion (Arabidopsis thaliana); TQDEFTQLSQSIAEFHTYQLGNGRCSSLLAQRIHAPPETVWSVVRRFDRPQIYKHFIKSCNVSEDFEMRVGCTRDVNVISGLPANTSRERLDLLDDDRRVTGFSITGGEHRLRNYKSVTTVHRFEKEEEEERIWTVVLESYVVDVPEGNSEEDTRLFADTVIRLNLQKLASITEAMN; partner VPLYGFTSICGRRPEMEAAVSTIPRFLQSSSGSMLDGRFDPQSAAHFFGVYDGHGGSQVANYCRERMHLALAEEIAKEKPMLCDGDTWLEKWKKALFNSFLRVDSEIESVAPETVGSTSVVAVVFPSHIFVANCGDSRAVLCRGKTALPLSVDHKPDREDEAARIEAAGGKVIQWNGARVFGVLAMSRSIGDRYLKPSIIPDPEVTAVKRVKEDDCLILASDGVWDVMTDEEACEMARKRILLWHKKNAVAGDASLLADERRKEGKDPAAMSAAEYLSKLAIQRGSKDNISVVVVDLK
added | relative binding score [%]
(+)-ABA 4.8 µM | 41.1
(+)-ABA 58 µM | 66.5
(+)-ABA 0.0091 µM | 0.763
(+)-ABA 17 µM | 57.3
(+)-ABA 0 µM | 4.24
(+)-ABA 200 µM | 93

Block 2
Target: CCNE1, cyclin fold, Cln2 fusion (human)
Method: yeast growth competition, sequencing
Sample: yeast
Setting: strong parent motif
Baseline: not given
Direction: higher = stronger binding
Parent: viral docking peptide; TSVRRALFTGGSD; partner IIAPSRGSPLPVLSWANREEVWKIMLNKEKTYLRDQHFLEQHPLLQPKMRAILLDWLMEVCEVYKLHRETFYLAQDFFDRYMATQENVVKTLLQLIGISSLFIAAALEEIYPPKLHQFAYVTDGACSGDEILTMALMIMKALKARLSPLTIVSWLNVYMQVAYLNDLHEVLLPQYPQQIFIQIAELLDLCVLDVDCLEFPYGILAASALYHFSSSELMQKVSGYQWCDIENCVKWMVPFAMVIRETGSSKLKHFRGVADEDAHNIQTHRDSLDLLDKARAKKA
Change | normalised enrichment score
TSVRRALPTGGSD [F8P] | 0.0119
TSVRRALLTGGSD [F8L] | 0.704
THVRRALFTGGSD [S2H] | 5.73
TSLRRALFTGGSD [V3L] | 0.704
TSVRRAQFTGGSD [L7Q] | 0.0582
TSVRRALFTGNSD [G11N] | 5.81
TSVRRALRTGGSD [F8R] | 0.0872
TSVKRALFTGGSD [R4K] | 5.45
TSVRRALFTGGCD [S12C] | 5.69
TSVRRALFDGGSD [T9D] | 4.61
ASVRRALFTGGSD [T1A] | 6.04
TSQRRALFTGGSD [V3Q] | -0.144
TSVRRALFTLGSD [G10L] | 5
TSCRRALFTGGSD [V3C] | 4.29
TSVRRALGTGGSD [F8G] | -0.00362
TSVRRALETGGSD [F8E] | -0.261
TSVRRALYTGGSD [F8Y] | 0.579
TSVRKALLTGGSD [R5K F8L] | 0.257
TSVRRALFTNGSD [G10N] | 6.04

Block 3
Target: inorganic phosphate, free oxyanion
Method: microfluidic competitive inhibition
Sample: in vitro, cell-free expressed
Tested at: not given
Setting: derived from inhibition constants, unchanged parent 615000 nM
Direction: lower = stronger binding
Parent: PafA, mature enzyme, eGFP fusion (Elizabethkingia meningoseptica, UniProt Q9KJX5); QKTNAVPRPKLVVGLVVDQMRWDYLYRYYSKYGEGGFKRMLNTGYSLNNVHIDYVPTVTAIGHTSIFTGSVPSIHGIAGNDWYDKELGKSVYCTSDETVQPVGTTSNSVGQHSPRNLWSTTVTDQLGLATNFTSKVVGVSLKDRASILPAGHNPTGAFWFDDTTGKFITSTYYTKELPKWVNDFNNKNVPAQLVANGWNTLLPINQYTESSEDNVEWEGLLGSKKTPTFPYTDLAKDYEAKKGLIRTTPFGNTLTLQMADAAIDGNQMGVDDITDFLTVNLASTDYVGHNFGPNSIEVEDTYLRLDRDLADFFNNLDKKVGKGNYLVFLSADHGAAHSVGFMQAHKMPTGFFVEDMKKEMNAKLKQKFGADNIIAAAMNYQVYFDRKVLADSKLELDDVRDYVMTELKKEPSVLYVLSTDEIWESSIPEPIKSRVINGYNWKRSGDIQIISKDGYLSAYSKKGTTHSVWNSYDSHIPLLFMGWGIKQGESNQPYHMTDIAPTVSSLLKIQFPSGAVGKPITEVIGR
Change | phosphate dissociation constant [µM]
S338G | 464
G14A | 636
S30V | 637
G165V | 353
A377V | 560
G222V | 486
T104V | 520
Q125V | 511
K322G | 540
Y45G | 509
T274V | 684
T228V | 547
F184V | 597
E421V | 678
T133V | 668
V435G | 524
T171V | 611
S433G | 445

Block 4
Target: Prothrombin, mature alpha-thrombin (F2, Homo sapiens, UniProt P00734)
Method: aptamer microarray, sandwich
Form: DNA with 2'F-ANA
Sample: in vitro
Tested at: 200 nM
Setting: whole 15-mer aptamer, many near background
Added: Cy3 exosite-II aptamer, 400 nM
Direction: higher = stronger binding
Strand: GGTTGGTGTGGTTGG
Modification | mean fluorescence intensity [a.u.]
2'F-ANA at 4 5 7 8 9 10 | 48.1
2'F-ANA at 5 6 8 11 12 13 14 | 49.2
2'F-ANA at 2 3 4 5 7 10 11 14 15 | 50
2'F-ANA at 5 7 8 | 90.6
2'F-ANA at 2 5 6 7 8 10 11 14 15 | 50.4
2'F-ANA at 1 2 4 6 10 13 15 | 54.7
2'F-ANA at 1 2 11 14 15 | 50.5
2'F-ANA at 1 5 6 8 12 13 | 96

A few entries again (block 3):
Change | phosphate dissociation constant [µM]
T104V | 520
Q125V | 511
K322G | 540
